Measurements of several laboratories.
Values joined by “and” are separate records of one study, mostly repeats; a detail may differ. ± gives the spread as reported.

C[C@H](CCC(=O)NCC(=O)O)[C@H]1CC[C@H]2[C@@H]3CC[C@@H]4C[C@H](OS(=O)(=O)O)CC[C@]4(C)[C@H]3CC[C@]12C
plasma concentration (healthy human volunteers, plasma; dose not given, 0 h, control phase, probe drugs alone): 0.687 ± 0.229 µM

CN1CCN(c2ccc(OC(F)(F)F)c(Nc3ncc4c(n3)-c3c(c(C(N)=O)nn3CCO)CC4)c2)CC1
plasma concentration (LC-MS/MS; human, plasma; oral, 12 mg/m2, 72 h post-dose): 33.2 ng/mL and 2.9 ng/mL and 0.789 ng/mL and 3.84 ng/mL and 5.4 ng/mL and 3.18 ng/mL

C[C@H](CCC(=O)O[C@@H]1O[C@H](C(=O)O)[C@@H](O)[C@H](O)[C@H]1O)[C@H]1CC[C@H]2[C@@H]3[C@H](O)C[C@@H]4C[C@H](O)CC[C@]4(C)[C@H]3CC[C@]12C
plasma concentration (healthy human volunteers, plasma; dose not given, 0 h, baseline phase, no drug): 0.0201 ± 0.0024 µM

Cn1cnc2c1c(=O)[nH]c(=O)n2C
plasma concentration (human, both sexes, plasma; mean): 22.4 µM

C[C@H](CCC(=O)O)[C@H]1CC[C@H]2[C@@H]3[C@H](O)C[C@@H]4C[C@H](O)CC[C@]4(C)[C@H]3C[C@H](O)[C@]12C
plasma concentration (healthy human volunteers, plasma; dose not given, 0 h, control phase, probe drugs alone): 0.0772 ± 0.0417 µM

Cn1c(=O)[nH]c2ncn(C)c2c1=O
plasma concentration (human, both sexes, plasma; mean): 14.3 µM

O=C(Nc1cnccc1Cl)N1CCN(Cc2ccc3c(c2)OC(F)(F)O3)CC1
plasma concentration (human, plasma; 2.5 mg once daily, 24 h post dose day 7): 1.44 ng/mL

N#Cc1ccc(C(c2ccc(C#N)cc2)n2cncn2)cc1
plasma concentration (human patients, plasma; oral, 15 mg daily, day of surgery): 526 ± 103 ng/mL

COc1cc2c(cc1OC)CN(CCc1ccc(NC(=O)c3cc(OC)c(OC)cc3NC(=O)c3cnc4ccccc4c3)cc1)CC2
plasma concentration (human, plasma; intravenous infusion, 5.9 mg/kg, 123 min): 4.11 µM and 3.76 µM and 2.83 µM

CCCN(CCC)S(=O)(=O)c1ccc(C(=O)O)cc1
plasma concentration (healthy male humans, plasma; oral, dose not given, 3 h, 1 h before cocktail): 358 µM

O=C(O)CCCCCCCCCCC(=O)O
plasma concentration (healthy human volunteers, plasma; oral, dose not given, 0 h, control phase, probe drugs alone): 0.0298 ± 0.0047 µM

C[C@@H](O)[C@H]1C(=O)N2C(C(=O)O)=C(SCCN=CN)C[C@H]12
plasma concentration (human; intravenous, 500 mg single, 0.08 h): 35.1 µM

For quick reference, copied from above:
O=C(Nc1cnccc1Cl)N1CCN(Cc2ccc3c(c2)OC(F)(F)O3)CC1
plasma concentration (human, plasma; 2.5 mg once daily, 24 h post dose day 7): 1.44 ng/mL

N#Cc1ccc(C(c2ccc(C#N)cc2)n2cncn2)cc1
plasma concentration (human patients, plasma; oral, 15 mg daily, day of surgery): 526 ± 103 ng/mL
